Published values from different studies.
Every numbered part comes from another study and shows a few of its results, in no order. Changes are numbered by the printed parent chain.

Series 1
Target: CEP164, C-terminal peptide (human)
Method: DHFR complementation, deep sequencing
Medium: yeast
Notes: single substitutions, model-inferred values
Reference: wild type
Reading: higher = weaker binding
Quantity: binding free energy change
Parent: PDZK1, PDZ domain 2 (human); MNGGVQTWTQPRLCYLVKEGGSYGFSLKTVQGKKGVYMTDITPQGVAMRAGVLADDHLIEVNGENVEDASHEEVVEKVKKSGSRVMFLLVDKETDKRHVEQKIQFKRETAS; partner HNRVKVYRF
Change = E76V; result = 0.383 kcal/mol
Change = E100C; result = -0.0826 kcal/mol
Change = C14W; result = 1 kcal/mol
Change = H57S; result = 0.069 kcal/mol
Change = L53M; result = -0.0947 kcal/mol
Change = Q44S; result = 0.0228 kcal/mol
Change = G3W; result = 0.053 kcal/mol
Change = V17H; result = 0.0785 kcal/mol

Series 2
Target: inorganic phosphate, free oxyanion
Method: microfluidic competitive inhibition
Medium: in vitro, cell-free expressed
Tested at: not given
Notes: derived from inhibition constants, unchanged parent 615000 nM
Reading: lower = stronger binding
Quantity: phosphate dissociation constant
Parent: PafA, mature enzyme, eGFP fusion (Elizabethkingia meningoseptica, UniProt Q9KJX5); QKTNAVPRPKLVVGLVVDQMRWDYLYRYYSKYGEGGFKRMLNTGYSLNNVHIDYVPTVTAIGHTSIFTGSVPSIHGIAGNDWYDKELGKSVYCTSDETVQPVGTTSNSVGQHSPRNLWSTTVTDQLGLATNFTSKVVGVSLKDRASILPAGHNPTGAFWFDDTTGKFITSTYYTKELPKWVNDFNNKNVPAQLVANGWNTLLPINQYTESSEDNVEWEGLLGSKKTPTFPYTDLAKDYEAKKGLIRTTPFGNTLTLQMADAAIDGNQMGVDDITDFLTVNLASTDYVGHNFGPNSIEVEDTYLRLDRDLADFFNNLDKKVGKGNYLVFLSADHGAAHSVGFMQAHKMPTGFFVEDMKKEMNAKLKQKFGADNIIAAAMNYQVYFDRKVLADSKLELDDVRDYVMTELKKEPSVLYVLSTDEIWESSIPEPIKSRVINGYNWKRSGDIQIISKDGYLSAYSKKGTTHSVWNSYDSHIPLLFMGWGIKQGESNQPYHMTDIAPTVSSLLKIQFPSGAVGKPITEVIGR
Change = N153G; result = 465 µM
Change = M356V; result = 623 µM
Change = S106V; result = 688 µM
Change = L305V; result = 852 µM

Series 3
Target: Fragile X messenger ribonucleoprotein 1, C-terminal low-complexity region (Fmr1, Mus musculus, UniProt P35922)
Method: RNA Bind-n-Seq
Form: RNA
Medium: in vitro
Tested at: 200 nM
Notes: whole 134-nt RNA, ends assumed
Added: 150 mM LiCl
Reference: input library
Reading: higher = stronger binding
Quantity: log2 enrichment
Library: 7-deaza-guanosine replaces G
All sequences stand within: GGGAGUUCUACAGUCCGACGAUC … UGGAAUUCUCGGGUGUCAAGG
Sequence = UAACUUUAGAAGAGGAUCUGAUGGAUAUGGCAGUGGACGUGGAUUUGGGGAUGGCUAUAAUGGGUAUGGAGGAGGACCUGGAGGUGGCAA; result = 0.232
Sequence = CACAGACAACACGCACCCACACAGACACAGAGGGAAGGGGUUGGGAUGGGGACAGGGUGCACAGCAGGGCUGGGUAGGACCCCAGCCCCU; result = 0.473
Sequence = CAAGUCCUGUGCUACACAUCGUAUGUACCGAAUCGGGUUUUUGGGAGGGUUUGGGAAAGUAUUAUGUUACGCCGUUCGGAUCUGCACUUC; result = -0.613
Sequence = UUUAAGAGCAGCCAGGGAGAUAGUGGCGUUGACUUGAGUGCCGAGUCUCGGGAGUCGUCUGCGACCUCCUCGCAGCGCAGCUCCCCAUAU; result = 1.41
Sequence = ACCAUGCAGGUGGGCAGCUUUGGGAAGUGGGGCAAGGGGGGGAUAGGGAGGGGGGUAACACUUUGGGAACAGGUGGUCCCAGGUCGUUUC; result = 1.44
Sequence = AGUCCUGUGCUACACAUCGUAUGUACCGAAUCGGGAAAAAAAGGGAAAAAGGGAGGGAAAGUAUUAUGUUACGCCGUUCGGAUCUGCACU; result = -0.773
Sequence = UCCUGUGCUACACAUCGUAUGUACCGAAUCGGGGUUUUUGGGGAAAAAGGGGAAAGGGGAAAGUAUUAUGUUACGCCGUUCGGAUCUGCA; result = -0.837
Sequence = AGUCCUGUGCUACACAUCGUAUGUACCGAAUCGGUUUUUGGGGUUUUUGGUUUUUGGAAAGUAUUAUGUUACGCCGUUCGGAUCUGCACU; result = -1.79

Series 4
Target: CCNA1, cyclin fold, Cln2 fusion (human)
Method: yeast growth competition, sequencing
Medium: yeast
Notes: weak parent motif
Reference: not given
Reading: higher = stronger binding
Quantity: normalised enrichment score
Parent: viral docking peptide; PGASRRLFGSSAD
Change = R6A; result = -0.0317
Change = S11A; result = 0.466
Change = R5K F8L; result = 0.168
Change = S4A; result = 0.46

For quick reference, copied from above (series 4):
Change = R6A; result = -0.0317
Change = S11A; result = 0.466
